Measurements pooled from the literature.
Each line is one published result; not all experiments were run side by side. ± marks the error that the study gave. ≈ marks a conversion by molar mass, not a printed value.
Chain of UniProt Q9NWZ3 (whole entry, unmodified, looked up): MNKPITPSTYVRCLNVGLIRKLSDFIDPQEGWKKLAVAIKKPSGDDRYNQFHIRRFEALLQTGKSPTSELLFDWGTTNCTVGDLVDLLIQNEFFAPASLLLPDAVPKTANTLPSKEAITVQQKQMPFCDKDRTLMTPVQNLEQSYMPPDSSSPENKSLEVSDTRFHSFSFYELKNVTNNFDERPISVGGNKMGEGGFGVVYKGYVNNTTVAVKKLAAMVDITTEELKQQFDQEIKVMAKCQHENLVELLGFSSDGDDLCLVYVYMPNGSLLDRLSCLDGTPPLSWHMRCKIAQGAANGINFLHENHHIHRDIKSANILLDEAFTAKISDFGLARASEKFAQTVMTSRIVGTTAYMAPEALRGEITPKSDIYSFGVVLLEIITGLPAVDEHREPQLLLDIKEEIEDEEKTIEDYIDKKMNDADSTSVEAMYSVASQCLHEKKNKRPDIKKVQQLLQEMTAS
Chain of UniProt Q13011 (whole entry, looked up): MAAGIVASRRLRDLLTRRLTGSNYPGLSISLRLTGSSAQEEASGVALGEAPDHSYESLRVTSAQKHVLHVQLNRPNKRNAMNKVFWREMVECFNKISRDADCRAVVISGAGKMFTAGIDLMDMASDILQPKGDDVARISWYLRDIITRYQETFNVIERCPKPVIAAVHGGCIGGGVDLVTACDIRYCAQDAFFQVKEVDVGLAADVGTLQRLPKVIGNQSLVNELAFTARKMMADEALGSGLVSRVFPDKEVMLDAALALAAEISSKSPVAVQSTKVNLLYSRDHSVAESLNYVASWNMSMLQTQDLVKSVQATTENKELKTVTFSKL
Chain of UniProt P46663 (whole entry, looked up): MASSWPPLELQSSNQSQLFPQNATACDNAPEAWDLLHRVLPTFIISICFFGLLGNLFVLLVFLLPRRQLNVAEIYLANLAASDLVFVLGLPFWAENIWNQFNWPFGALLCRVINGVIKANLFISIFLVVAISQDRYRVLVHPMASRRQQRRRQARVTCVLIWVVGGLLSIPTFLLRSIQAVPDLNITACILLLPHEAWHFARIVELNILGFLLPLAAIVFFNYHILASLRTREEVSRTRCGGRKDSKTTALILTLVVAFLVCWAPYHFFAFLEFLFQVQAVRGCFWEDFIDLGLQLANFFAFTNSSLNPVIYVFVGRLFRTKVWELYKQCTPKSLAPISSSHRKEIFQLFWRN

Structure (SMILES)	tested on	assay	system	setting	how to read	endpoint	value
C[C@H]1CN(c2n[nH]c3nc(N[C@H]4CC[C@H](NS(=O)(=O)CCC(F)(F)F)CC4)ncc23)CCO1	Delta(3,5)-Delta(2,4)-dienoyl-CoA isomerase, mitochondrial (Homo sapiens, UniProt Q13011)	Kinobeads competition, measured: ECH1		0.8 µM, unit not given	reference: vehicle	remaining binding	1.1
NCCCC[C@H]1NC(=O)[C@H](Cc2ccccc2)NC(=O)[C@H](Cc2c[nH]c3ccccc23)NC(=O)[C@@H](Cc2ccccc2)NC(=O)[C@H](Cc2ccccc2)NC(=O)[C@@H](CCCN)NC(=O)[C@H](CCCN)NC1=O	Naegleria fowleri			trophozoites		IC50	> 16 µg/mL
COc1cc(Nc2ncc(F)c(Nc3ccc4c(n3)NC(=O)C(C)(C)O4)n2)cc(OC)c1OC	BDKRB1 (Homo sapiens, UniProt P46663)					IC50	> 10 µM
CNCCCN1c2ccccc2CCc2ccccc21	Plasmodium falciparum		7G8			IC50	5.01 µM
CC[C@H](C)[C@@H]1NC(=O)[C@@H]2CCCN2C(=O)[C@H](CC(C)C)NC(=O)[C@H](CC(C)C)NC(=O)CNC(=O)[C@@H](NC(=O)[C@@H](NC(=O)[C@H](CC(=O)O)NC(=O)CNC(=O)[C@@H](NC(=O)[C@H](C)NC(=O)CNC(=O)[C@H](CCCCN)NC(=O)[C@H](CC(C)C)NC(=O)[C@H](CC(C)C)NC(=O)[C@H](CCCCN)NC(=O)CNC(=O)[C@@H](NC(=O)[C@@H](N)CC(C)C)C(C)C)C(C)C)C(C)C)CSSC[C@@H](C(=O)O)NC1=O		RNA-seq, measured: Rab43	mouse, traumatic brain injury model, frontal cortex and hippocampus	dose not given	reference: TBI alone	log2 fold change	-1.1
Cc1cc(Nc2ccc(Cl)c(Cl)c2)n2nc(C)nc2n1	Plasmodium falciparum	parasite growth	Dd2			EC50	0.104 ± 0.032 µM
CNCCC=C1c2ccccc2CCc2ccccc21	Plasmodium falciparum		D10			IC50	12.6 µM
CNC(=O)c1cc(Cl)cc(C)c1NC(=O)c1cc(Br)nn1-c1ncccc1Cl	Spodoptera litura		Brassica oleracea field	25 ppm, 168 h, 5% water-dispersible granule		corrected larval mortality	83.3%
CO[C@H]1C[C@@H]2CC[C@@H](C)[C@@](O)(O2)C(=O)C(=O)N2CCCC[C@H]2C(=O)O[C@H]([C@H](C)C[C@@H]2CC[C@@H](OC(=O)NCCOCCOCCOCCOCCOCCOCCOCCOCCC(=O)N3CCc4cc(Cn5nc(-c6ccc7oc(N)nc7c6)c6c(N)ncnc65)ccc4C3)[C@H](OC)C2)C[C@@H](O)[C@H](C)/C=C(\C)[C@@H](O)[C@@H](OC)C(=O)[C@H](C)C[C@H](C)/C=C/C=C/C=C/1C			patients with advanced solid tumours	intravenous, 10 mg weekly, grade 3 or higher		headache incidence	0%
COc1ccc(-n2ccnc2SCC(=O)Nc2cccc(C(F)(F)F)c2)c(OC)c1	Plasmodium falciparum	parasite growth, SYBR Green	3D7 wild type	72 h		EC50	0.163 ± 0.05 µM
CC[C@H](C)[C@H](NC(=O)[C@H](C)NC(=O)[C@H](CCCCN)NC(=O)[C@H](CC(C)C)NC(=O)[C@H](C)NC(=O)[C@@H](NC(=O)[C@H](Cc1c[nH]cn1)NC(=O)[C@H](CC(C)C)NC(=O)[C@@H](NC(=O)[C@@H](NC(=O)[C@H](CCCCN)NC(=O)[C@H](C)NC(=O)[C@H](C)NC(=O)[C@H](CO)NC(=O)[C@H](CCCCN)NC(=O)[C@H](Cc1ccccc1)NC(=O)[C@@H](NC(=O)[C@H](CCCCN)NC(=O)[C@H](CC(C)C)NC(=O)[C@H](Cc1ccccc1)NC(=O)[C@H](CO)NC(=O)[C@H](CCCCN)NC(=O)[C@H](Cc1c[nH]c2ccccc12)NC(=O)[C@H](CCCCN)NC(C)=O)[C@@H](C)O)[C@@H](C)O)C(C)C)[C@@H](C)O)C(=O)N[C@@H](CO)C(=O)N[C@@H](CO)C(N)=O	Klebsiella pneumoniae		ATCC 1706			MIC range	2 µg/mL (≈ 0.682 µM)
CS(=O)(=O)CCCn1c(Cn2c(=O)n(CC(F)(F)F)c3ccncc32)cc2cc(Cl)ccc21	respiratory syncytial virus	RT-qPCR	hospitalized infants 1-24 months, nasal swab	oral, 2, 1.5 or 1 mg/kg daily, day 7, low dose by age cohort	reference: placebo	LS mean difference vs placebo	-0.11 log10 copies/mL
CC(C)[C@H]1NC(=O)[C@H](CCCNC(=N)N)NC(=O)CNC(=O)[C@@H](Cc2c[nH]c3ccccc23)NC(=O)[C@H](CCCCN)NC(=O)[C@@H](CCCN)NC1=O	Acanthamoeba castellanii			trophozoites		IC90	> 16 µg/mL
COC(=O)[C@H]1[C@H]2C[C@@H]3c4[nH]c5cc(OC)ccc5c4CCN3C[C@H]2C[C@@H](OC(=O)c2cc(OC)c(OC)c(OC)c2)[C@@H]1OC	Plasmodium falciparum		D10			IC50	2.51 µM
C[C@@H](O)[C@@H]1NC(=O)[C@@H](CCCCN)NC(=O)[C@H](CCCN)NC(=O)[C@@H](CCCN)NC(=O)[C@H](CO)NC(=O)[C@H](Cc2c[nH]c3ccccc23)NC(=O)[C@@H](Cc2c[nH]c3ccccc23)NC1=O	Naegleria fowleri			trophozoites		IC50	> 16 µg/mL
CC[C@]1(O)C[C@H]2CN(CCc3c([nH]c4ccccc34)[C@@](C(=O)OC)(c3cc4c(cc3OC)N(C=O)[C@H]3[C@@](O)(C(=O)OC)[C@H](OC(C)=O)[C@]5(CC)C=CCN6CC[C@]43[C@@H]65)C2)C1	Plasmodium falciparum		Dd2			IC50	0.1 µM

Structure (SMILES)	tested on	assay	system	setting	how to read	endpoint	value
CC(C)C(NC(=O)Cc1cccc2ccccc12)C(=O)Nc1cccc(C#N)c1 (stereo not shown)	Plasmodium falciparum	parasite growth, SYBR Green		72 h	reference: 3D7-E182D over 3D7	EC50 ratio	29
COc1ccc(N2C(=O)N(c3c(C)cccc3Cl)Cc3cnc(Nc4ccc(C5CCN(C)CC5)cc4OC)nc32)nc1	IRAK4 (Homo sapiens, UniProt Q9NWZ3)	kinase activity		0.5 µM		inhibition	5%
COc1cc2c(Oc3ccc4[nH]c(C)cc4c3F)ccnc2cc1OCC1(N)CC1			paediatric recurrent refractory sarcoma	12 mg		grade 3 Nausea	0%
CC1(C)SC2C(NC(=O)C(NC(=O)C3=C(O)C(Cc4ccsc4)NC3=O)c3ccccc3)C(=O)N2C1C(=O)O (stereo not shown)	Escherichia coli	broth microdilution	Keio mutant JW2142-1			MIC	25 µg/mL (≈ 43.8 µM)
CC(CCc1ccccc1)NC(C)C(O)c1ccc(O)cc1 (stereo not shown)	Plasmodium falciparum		3D7			IC50	12.6 µM
Nc1ncnc2c1ncn2[C@@H]1O[C@@H]2COP(=O)(O)O[C@H]3[C@@H](O)[C@H](n4cnc5c(=O)[nH]cnc54)O[C@@H]3COP(=O)(O)O[C@H]2[C@H]1O	HFF-1	RNA sequencing Reactome analysis, measured: Reactome R-HSA-3781865 diseases of glycosylation		together with: West Nile virus infection	reference: West Nile virus infected cells, downregulated pathway	pathway fold enrichment	3.55
CC(C)(C)[C@]1(O)CCN2C[C@H]3c4ccccc4CCc4cccc(c43)[C@@H]2C1	Plasmodium falciparum		Dd2			IC50	15.8 µM
COc1cc(CCC[P+](c2ccccc2)(c2ccccc2)c2ccccc2)c(OC)c2c1OCO2.[I-]	NCI-H226	SRB				TGI	-4.67 log M
CN(C)S(=O)(=O)c1ccc(Sc2ccccc2)c(C(=O)N2CCCC(C(N)=O)C2)c1 (stereo not shown)	Plasmodium falciparum	parasite growth, SYBR Green	3D7 wild type	72 h		EC50	0.134 ± 0.032 µM
CC(C)[C@@H]1NC(=O)[C@@H](Cc2ccccc2)NC(=O)[C@H](Cc2ccccc2)NC(=O)[C@@H]([C@H](C)O)NC(=O)[C@@H](CCCNC(=N)N)NC1=O	Naegleria fowleri			trophozoites		IC50	> 16 µg/mL
CC[C@H](C)[C@H](NC(=O)[C@H](Cc1ccccc1)NC(=O)[C@H](CCC(=O)O)NC(=O)[C@H](CCCNC(=N)N)NC(=O)[C@H](C)NC(=O)[C@H](C)NC(=O)[C@H](CCC(N)=O)NC(=O)[C@H](CCC(=O)O)NC(=O)[C@H](CCC(=O)O)NC(=O)[C@H](CC(C)C)NC(=O)[C@H](Cc1ccc(O)cc1)NC(=O)[C@H](CO)NC(=O)[C@H](CO)NC(=O)[C@@H](NC(=O)[C@H](CC(=O)O)NC(=O)[C@H](CO)NC(=O)[C@@H](NC(=O)[C@H](Cc1ccccc1)NC(=O)[C@@H](NC(=O)CNC(=O)[C@H](CCC(=O)O)NC(=O)[C@H](C)NC(=O)CCc1c[nH]cn1)[C@@H](C)O)[C@@H](C)O)C(C)C)C(=O)N[C@@H](C)C(=O)N[C@@H](Cc1c[nH]c2ccccc12)C(=O)N[C@@H](CC(C)C)C(=O)N[C@H](C(=O)N[C@@H](CCCNC(=N)N)C(=O)NCC(=O)N[C@@H](CCCNC(=N)N)C(=O)N[C@@H](CCCCNC(=O)COCCOCCNC(=O)COCCOCCNC(=O)CC[C@H](NC(=O)CCCCCCCCCCCCCCCCC(=O)O)C(=O)O)C(=O)NCC(=O)NCC(=O)N[C@@H](CO)C(=O)N[C@@H](CCCCNc1c(NCCCCCN(O)C(=O)CCC(=O)NCCCCCN(O)C(=O)CCC(=O)NCCCCCN(O)C(C)=O)c(=O)c1=O)C(=O)O)C(C)C [zirconium-89 labelled]		gamma counting	rat, stomach-duodenum	subcutaneous, 3 nmol/kg, 168 h		tissue uptake	0.28 %ID/g
CC(C)[C@@H]1NC(=O)[C@@H](CCCCN)NC(=O)[C@H](CCCN)NC(=O)[C@@H](CC(=O)O)NC(=O)[C@H](C)NC(=O)[C@H](Cc2c[nH]c3ccccc23)NC(=O)[C@@H](Cc2ccccc2)NC1=O	Naegleria fowleri			trophozoites		IC90	> 16 µg/mL
C[C@@H](O)[C@@H](CO)NC(=O)[C@@H](CCCNC(=N)N)NC(=O)[C@@H]1CCCN1C(=O)[C@@H]1CSSC[C@H](NC(=O)[C@H](Cc2ccccc2)NC(=O)CN2CCN(CC(=O)O)CCN(CC(=O)O)CCN(CC(=O)O)CC2)C(=O)N[C@@H](Cc2ccc(O)cc2)C(=O)N[C@@H](Cc2ccccc2)C(=O)N[C@@H](CCC(N)=O)C(=O)N[C@@H](CC(N)=O)C(=O)N1 [gallium-68 labelled]			Wistar rat, healthy, Lacrimal gland	intravenous, 8 MBq, 120 min, mean		tissue uptake	0.04 %ID/g
C[C@@H](O)[C@@H]1NC(=O)[C@H](Cc2ccccc2)NC(=O)[C@@H](Cc2ccccc2)NC(=O)[C@H]([C@@H](C)O)NC(=O)[C@@H](CCCCN)NC(=O)[C@H](CC(=O)O)NC1=O	Acanthamoeba castellanii			trophozoites		IC90	> 16 µg/mL
Cc1cc(NC(=O)c2cc(S(=O)(=O)N3CCCCC3)ccc2C)no1	Plasmodium falciparum	parasite growth, SYBR Green	3D7 DHODH E182D	72 h		EC50	2.88 ± 0.31 µM

A few entries again:
Structure (SMILES)	tested on	assay	system	setting	how to read	endpoint	value
CNC(=O)c1cc(Cl)cc(C)c1NC(=O)c1cc(Br)nn1-c1ncccc1Cl	Spodoptera litura		Brassica oleracea field	25 ppm, 168 h, 5% water-dispersible granule		corrected larval mortality	83.3%
CO[C@H]1C[C@@H]2CC[C@@H](C)[C@@](O)(O2)C(=O)C(=O)N2CCCC[C@H]2C(=O)O[C@H]([C@H](C)C[C@@H]2CC[C@@H](OC(=O)NCCOCCOCCOCCOCCOCCOCCOCCOCCC(=O)N3CCc4cc(Cn5nc(-c6ccc7oc(N)nc7c6)c6c(N)ncnc65)ccc4C3)[C@H](OC)C2)C[C@@H](O)[C@H](C)/C=C(\C)[C@@H](O)[C@@H](OC)C(=O)[C@H](C)C[C@H](C)/C=C/C=C/C=C/1C			patients with advanced solid tumours	intravenous, 10 mg weekly, grade 3 or higher		headache incidence	0%
COc1ccc(-n2ccnc2SCC(=O)Nc2cccc(C(F)(F)F)c2)c(OC)c1	Plasmodium falciparum	parasite growth, SYBR Green	3D7 wild type	72 h		EC50	0.163 ± 0.05 µM
CC[C@H](C)[C@H](NC(=O)[C@H](C)NC(=O)[C@H](CCCCN)NC(=O)[C@H](CC(C)C)NC(=O)[C@H](C)NC(=O)[C@@H](NC(=O)[C@H](Cc1c[nH]cn1)NC(=O)[C@H](CC(C)C)NC(=O)[C@@H](NC(=O)[C@@H](NC(=O)[C@H](CCCCN)NC(=O)[C@H](C)NC(=O)[C@H](C)NC(=O)[C@H](CO)NC(=O)[C@H](CCCCN)NC(=O)[C@H](Cc1ccccc1)NC(=O)[C@@H](NC(=O)[C@H](CCCCN)NC(=O)[C@H](CC(C)C)NC(=O)[C@H](Cc1ccccc1)NC(=O)[C@H](CO)NC(=O)[C@H](CCCCN)NC(=O)[C@H](Cc1c[nH]c2ccccc12)NC(=O)[C@H](CCCCN)NC(C)=O)[C@@H](C)O)[C@@H](C)O)C(C)C)[C@@H](C)O)C(=O)N[C@@H](CO)C(=O)N[C@@H](CO)C(N)=O	Klebsiella pneumoniae		ATCC 1706			MIC range	2 µg/mL (≈ 0.682 µM)
